Results gathered from unrelated publications.
A part holds a random share of what one study measured. Changes are numbered by the printed parent chain.

Study 1
Target: RNA binding protein fox-1 homolog 2, RRM domain, GST-SBP tag (RBFOX2, Homo sapiens, UniProt O43251-10, residues 100-194)
Method: RNA Bind-n-Seq
Molecule type: RNA
Medium: in vitro
Concentration: 365 nM
Notes: natural RNA segment, single round, ends assumed
Relative to: no-protein control
Reading: higher = stronger binding
Residues (chain): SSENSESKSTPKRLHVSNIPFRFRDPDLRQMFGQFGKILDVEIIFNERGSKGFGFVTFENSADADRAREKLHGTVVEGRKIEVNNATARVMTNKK
| Strand | RBNS enrichment (R) |
| --- | --- |
| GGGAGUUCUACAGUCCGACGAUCCUCACUUCAGAGUGUGACUCUUUAAAUAUUAAAAUAGAUACUAACUGUUCAUAGAACAGGCCGAUUCUGAUUAGAUUUUAUCAGGGAAUCUGUUAAGAUAUGUUUGGUGAUGGAAUUCUCGGGUGCCAA | 0.378 |
| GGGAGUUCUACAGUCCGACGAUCCUUGCCCAUUCACUUCAGUCUGCAGAAAGCCUCUUCCCUGGGUUGUCAGCCAGAAAAAAGGAGAGGUCAAAGGUCUGUUCUUCCUGCUACACAGGGUCUGGUUUUAAAAGUGGAAUUCUCGGGUGCCAA | 0.407 |
| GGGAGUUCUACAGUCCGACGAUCUAGAACUUCAAAUGCGAUGGUCUUGACUAUUAGACCAGAUUUAGUAGCUCCAUAUCUAAGAUUUUUCUACCUGCCCCUCUUCAGUACAGGGAUGGCUGGCUGCUCAACACUGGAAUUCUCGGGUGCCAA | 0.418 |
| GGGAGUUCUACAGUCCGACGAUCCCUGUUGUAACUGAUUGUGAACACUUUUAUGAGCUUUAAAAUAAAGUUCAUCUUAUGGUGUCAUUUCAAACUGUUGAUUUUGUCACUAAUUUAAAAAAUGAGAUGAGGGAUGGAAUUCUCGGGUGCCAA | 0.393 |
| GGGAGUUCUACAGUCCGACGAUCCCCUUGGGUUGCUUGCCAGACUCUUGAGUUGGCUCAUUUGUCCGGGCAGGGUUGGCUGGUAUGGUCAUCAGUAUGGGUCGUGACAGUCAAUGUCACUUCCUUCUCUAGGAUGGAAUUCUCGGGUGCCAA | 0.298 |
| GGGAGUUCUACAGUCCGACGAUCCGGACACUGUUGGGAACCAAACUCUGUCUUGGAGCCUCCUUUUAGCUCACUCCACAAGUAAAUGGAUUUAAUCAAAGGUCACCUAUCUGCUUUUGAUUGUCUAGGUCACAUGGAAUUCUCGGGUGCCAA | 0.265 |
| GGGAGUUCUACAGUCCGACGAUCCCUGGGGUUUUUCCUCUUCCUUCUUUGUGGUUUCUGUUUUGUAAUUUAAGAAGAGCUAUUCAUCACUGUAAUUAUUAUUAUUUUCUACAAUAAAUGGGACCUGUGCACAGUGGAAUUCUCGGGUGCCAA | 0.379 |
| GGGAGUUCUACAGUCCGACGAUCCCCUUUGAGCCCCCAGAUGGUAUUGCAGCUUCACUGCCUGCGUUCCUGGGAGCGUCUGGAGCUCACAGUGAUCAGUGACCACAUCAUUCUCUCUGAGCAGAGGAGCAGGAUGGAAUUCUCGGGUGCCAA | 0.587 |
| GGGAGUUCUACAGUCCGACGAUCCCCAUCUCCUCUCCCUUACUGUAGCAUUUCUGUCAUGUAAGAGGUGCUGACAGCCACUUCCGUGUCCCCUUUCUGCUCGAAGGAUGAGGAUACCUUGGGCAUCAGCUCCCUGGAAUUCUCGGGUGCCAA | 0.674 |
| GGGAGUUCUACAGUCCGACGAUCCUGCCAGUGAAGGAAAAUGGUCAUCCUUAGUACACAGAAAAGUAUGUUUUCACUUUUCCUUGUUCGGGAAUGAUAAGGGCAAUGCUUUUUGAGGUUUAACUAACAAGGAUUGGAAUUCUCGGGUGCCAA | 0.444 |
| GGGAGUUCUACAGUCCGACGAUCGUUUUACAAAAUAAUGAAGCAAUUAGCUAUGUGAUUGAGAGUUAUUGUUUGGGGAUGUGUGUUGUGGUUUUGCUUUUUUUUUUUAGACUGUAUUAAUAAACAUACAACACUGGAAUUCUCGGGUGCCAA | 1.51 |
| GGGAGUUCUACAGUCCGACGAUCGGAGCACUGUGGGGACGGACUCCGCCUGCUGUUCCCGCGCUGAGCUACAGGACUCCCGAGUGUGAGCCGCGGUUCCUCUGUUGCAGCGCAGCCGUGUGUGCUGUGGAGCCUGGAAUUCUCGGGUGCCAA | 0.219 |

Study 2
Target: Interferon regulatory factor 5, full length, phosphomimetic (IRF5, Homo sapiens, UniProt Q13568-2, residues 1-514, K96S/S451D/S453D/S456D/S462D)
Method: protein-binding microarray
Molecule type: double-stranded DNA, one strand shown
Medium: in vitro
Concentration: 250 nM
Notes: 60-bp whole probe
Added: salmon DNA 0.4 mg/ml
Relative to: random background probes
Reading: higher = stronger binding
All sequences stand within: GCCTAGCAC … GTCTTGATTCGCTTGACGCTGCTG
| Strand | log fluorescence [z-score] |
| --- | --- |
| AGGCATCTCGGAGATCTCGAAGTGCTA | -0.393 |
| CTAATTTTTACTTTCTGAATGTGCTAG | 3.76 |
| TCACTTTCCATTTCTGTTACTGTGCTA | 4.8 |
| TCACCTATCCAAGTTCCCACTGTGCTA | 0.0815 |
| GTTTGTGTGTGTATGTGGTCGTGCTAG | 0.108 |
| GACGCACTGGACTTTCGGGACGTGCTA | 4.49 |
| TACGGTATCCTTCTCCTGACGTGCTAG | 0.573 |
| GACGGTATCCTTTTCCTGATGTGCTAG | 0.312 |
| TTAGATTTCGGGTCTCGATTAGTGCTA | 4.89 |
| TGGGCTCTAGGTTCTCTGAAGGTGCTA | -0.405 |
| GACAGTATCGGGTTTCGGGACGTGCTA | 6.38 |
| TTAGGTATCAGACTGGGTTAGTGCTAG | 0.0138 |
| GAAGACTTTGGTTTGTACACGTGCTAG | -0.194 |
| GACGGGCTCCTTTTCCTGACGTGCTAG | -0.669 |
| GACGAATTGAGTCTCGAGACGTGCTAG | 0.0267 |
| TCACTTTACTCACTCGGACTGTGCTAG | 0.356 |
| GTTTTACTTTCTATCTCTGTGTGCTAG | 6.17 |
| GAAGGTTTCCTACTGCTGACGTGCTAG | 0.267 |
| GACGATCACAGACTGGAGACGTGCTAG | -0.597 |
| TTAGATTTCGGGATTCGATTAGTGCTA | 3.63 |
| TTAGGCCTGGGGTATCGGTTAGTGCTA | 1.92 |
| GACGAACTGAGGCTGGAGACGTGCTAG | -0.72 |
| TTAGGCTTCGGACTGGGTTAGTGCTAG | -0.268 |
| GACGATTCCAGACTGGAGACGTGCTAG | -0.342 |

Study 3
Target: CREBL2, bZIP domain (human)
Method: DHFR protein complementation
Medium: yeast
Notes: single substitutions, most at no-binding floor
Relative to: wild-type JUN-FOS pair
Reading: higher = stronger binding
Starting sequence: JUN, bZIP domain (human); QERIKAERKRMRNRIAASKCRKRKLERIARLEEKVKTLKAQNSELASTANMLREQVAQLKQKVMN; partner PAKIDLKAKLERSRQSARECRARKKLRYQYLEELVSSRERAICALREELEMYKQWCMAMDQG
| Variant | binding fitness |
| --- | --- |
| E32K | -1.52 natural log |
| E44D | -1.43 natural log |
| T48H | -1.54 natural log |
| R53S | -1.5 natural log |
| E33S | -1.53 natural log |
| N42H | -1.41 natural log |
| E44H | -1.46 natural log |
| Q41H | -1.58 natural log |
| E54R | -1.3 natural log |
| I28A | -1.28 natural log |
| E54V | -1.55 natural log |
| S43N | -1.46 natural log |
| E33H | -1.34 natural log |
| T48L | -1.41 natural log |
| M51T | -1.5 natural log |
| L52A | -1.45 natural log |
| E33N | -1.59 natural log |
| L38K | -1.42 natural log |
| K39D | -1.42 natural log |
| Q55T | -1.48 natural log |

Study 4
Target: CCNA1, cyclin fold, Cln2 fusion (human)
Method: yeast growth competition, sequencing
Medium: yeast
Notes: weak parent motif
Relative to: not given
Reading: higher = stronger binding
Starting sequence: RRM2 docking peptide (human); SKTARRIFQEPTE; partner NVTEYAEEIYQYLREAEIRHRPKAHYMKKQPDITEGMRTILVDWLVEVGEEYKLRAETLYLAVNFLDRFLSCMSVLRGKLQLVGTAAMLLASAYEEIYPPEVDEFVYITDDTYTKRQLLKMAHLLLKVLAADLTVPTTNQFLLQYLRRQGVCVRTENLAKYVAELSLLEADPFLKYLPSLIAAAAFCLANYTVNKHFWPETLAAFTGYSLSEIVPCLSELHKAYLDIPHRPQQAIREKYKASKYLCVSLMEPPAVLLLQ
| Variant | normalised enrichment score |
| --- | --- |
| S1A | 0.0402 |
| T3A | -0.239 |
| I7A | 0.091 |
| Q9A | 0.209 |
| T12A | -0.293 |
| R6A | 0.287 |

Study 5
Target: Histone acetyltransferase KAT6A, winged helix 2, GST fusion (KAT6A, Homo sapiens, UniProt Q92794, residues 85-181)
Method: protein binding microarray
Molecule type: double-stranded DNA, one strand shown
Medium: in vitro
Concentration: not given
Notes: 8-mer, flanks averaged, mean of 2 arrays, mostly near background
Relative to: not given
Reading: higher = stronger binding
Residues (chain): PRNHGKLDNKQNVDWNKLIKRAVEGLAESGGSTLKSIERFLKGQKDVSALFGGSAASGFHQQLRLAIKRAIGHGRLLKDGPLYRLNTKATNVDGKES
| Strand | E-score |
| --- | --- |
| CACTTATA | -0.173 |
| AGGCGTGG | -0.182 |
| CCAATGGC | -0.0502 |
| ACACCTTG | -0.0685 |
| CAGATTTA | 0.0156 |
| CCACTCAG | -0.0656 |
| AAATTTGT | 0.0557 |
| CAATTAGA | 0.108 |
| ATCGGAGG | 0.00431 |
| AATTCGGA | 0.0103 |
| CCTGCTCC | 0.109 |
| CCATGACC | -0.0504 |
| GCCTAAGC | 0.119 |
| AGCTCATG | 0.0368 |
| AATCCCCC | -0.0855 |
| CAACGCAG | 0.117 |
| ACAGTGCT | 0.18 |
| CCGCCCGA | 0.063 |

Study 6
Target: ABI1, truncated, D143A, DHFR fusion (Arabidopsis thaliana, UniProt P49597)
Method: DHFR PCA, dose-response
Medium: yeast
Notes: Hill fit, not affinity, not high confidence
Added: (+)-ABA, dose series
Reading: lower = more sensitive
Starting sequence: PYL1, truncated, DHFR fusion (Arabidopsis thaliana, UniProt Q8VZS8); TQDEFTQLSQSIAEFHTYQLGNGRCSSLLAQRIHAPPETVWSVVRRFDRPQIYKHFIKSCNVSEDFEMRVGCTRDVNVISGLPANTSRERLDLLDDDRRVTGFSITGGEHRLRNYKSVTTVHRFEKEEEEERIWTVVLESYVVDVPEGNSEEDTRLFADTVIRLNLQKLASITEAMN
| Variant | ABA EC50 |
| --- | --- |
| S87I | 0.795 µM |
| R99D | 1890 µM |
| S140E | 2.46 µM |
| F47S | 0.846 µM |
| F47M | 1140 µM |
| D97E | 1.55 µM |
| F103R | 869 µM |
| L91E | 4.38 µM |
| P50H | 2.57 µM |
| L91P | 2.05 µM |
| V78N | 256 µM |
| T120R | 910 µM |
| S117D | 52.1 µM |
| L112K | 100 µM |
| E89H | 354 µM |
| Y141Q | 1.14 µM |
| V137R | 3.14 µM |
| L82H | 230 µM |
| N165W | 741 µM |
| D48F | 558 µM |

For quick reference, copied from above (study 3):
| Variant | binding fitness |
| --- | --- |
| T48H | -1.54 natural log |
| R53S | -1.5 natural log |
| E33S | -1.53 natural log |
| N42H | -1.41 natural log |
| E44H | -1.46 natural log |
| Q41H | -1.58 natural log |
| E54R | -1.3 natural log |
| I28A | -1.28 natural log |
| E54V | -1.55 natural log |
| S43N | -1.46 natural log |
| E33H | -1.34 natural log |
| T48L | -1.41 natural log |
| M51T | -1.5 natural log |
| L52A | -1.45 natural log |
| E33N | -1.59 natural log |
| L38K | -1.42 natural log |
